Published values collected from several papers.
Compare with care: the assays were run in different laboratories. Several values in a cell are separate wells, animals, samples, runs or records. ± marks the error that the study gave. Values after ≈ are worked out from the molar mass of the structure shown.

`COC1OC(C)C(OS(=O)(=O)O)C(OC2OC(C)C(OS(=O)(=O)O)C(OC3OC(C)C(OS(=O)(=O)O)C(OC4OC(C)C(OS(=O)(=O)O)C(OC5OC(C)C(OS(=O)(=O)O)C(OC6OC(C)C(OS(=O)(=O)O)C(OC7OC(C)C(OS(=O)(=O)O)C(OS(=O)(=O)O)C7OS(=O)(=O)O)C6OS(=O)(=O)O)C5OS(=O)(=O)O)C4OS(=O)(=O)O)C3OS(=O)(=O)O)C2OS(=O)(=O)O)C1OS(=O)(=O)O` (centres unmarked) — result for “activated partial thromboplastin time”: 395.1 ± 3 s (human plasma; 128 µg/mL).
`O=C(N/N=C/c1ccc(C[n+]2ccccc2)cc1)c1ccc2ccc(C(=O)N/N=C/c3ccc(C[n+]4ccccc4)cc3)nc2n1` gave a ΔTm of 15.2 ± 0.4 °C (22CTA telomeric G4-DNA antiparallel; FRET melting; 1 µM, K10 buffer, DNA 0.2 µM).
`C=CC(=O)N1[C@@H](c2ccc3c(c2)OCO3)c2[nH]c3ccccc3c2C[C@H]1C(=O)N1CCN(C)CC1` has a relative co-enrichment of 200% (human cyclin E1 N112C-3xFLAG:CDK2; co-IP with TMT proteomics, item: HNRNPA1; concentration not given, P09651; baseline: wild type DMSO).
For `O=C(N/N=C/c1ccc(C[n+]2ccccc2)cc1)c1cc(C(=O)N/N=C/c2ccc(C[n+]3ccccc3)cc2)ncn1`, the ΔTm was 3.6 ± 0.7 °C (22CTA telomeric G4-DNA antiparallel; FRET melting; 1 µM, K10 buffer, DNA 0.2 µM, with: ds26 10 µM).
`COC1OC(C)C(OC2OC(C)C(O)C(OC3OC(C)C(OC4OC(C)C(O)C(OC5OC(C)C(OC6OC(C)C(O)C(OC7OC(C)C(OC8OC(C)C(O)C(OC9OC(C)C(OC%10OC(C)C(O)C(OC%11OC(C)C(OC%12OC(C)C(O)C(OS(=O)(=O)O)C%12OS(=O)(=O)O)C(OS(=O)(=O)O)C%11OS(=O)(=O)O)C%10OS(=O)(=O)O)C(OS(=O)(=O)O)C9OS(=O)(=O)O)C8OS(=O)(=O)O)C(OS(=O)(=O)O)C7OS(=O)(=O)O)C6OS(=O)(=O)O)C(OS(=O)(=O)O)C5OS(=O)(=O)O)C4OS(=O)(=O)O)C(OS(=O)(=O)O)C3OS(=O)(=O)O)C2OS(=O)(=O)O)C(OS(=O)(=O)O)C1OS(=O)(=O)O` (centres unmarked): “activated partial thromboplastin time” 67.9 s and 67.7 s (human plasma; 32 µg/mL).
Under “percent of control”, `C=CC(=O)Nc1cccc(Cn2ncc3cnc(Nc4cnn(CCOC)c4)nc32)c1` is recorded as 97% (CAMK1G human; binding, KINOMEscan; 100 nM; lower = stronger binding).
Under “activated partial thromboplastin time”, `COC1OC(C)C(O)C(OC2OC(C)C(O)C(OC3OC(C)C(O)C(OC4OC(C)C(O)C(OC5OC(C)C(O)C(OC6OC(C)C(O)C(OC7OC(C)C(O)C(OC8OC(C)C(O)C(OC9OC(C)C(O)C(OC%10OC(C)C(O)C(OS(=O)(=O)O)C%10OS(=O)(=O)O)C9OS(=O)(=O)O)C8OS(=O)(=O)O)C7OS(=O)(=O)O)C6OS(=O)(=O)O)C5OS(=O)(=O)O)C4OS(=O)(=O)O)C3OS(=O)(=O)O)C2OS(=O)(=O)O)C1OS(=O)(=O)O` (centres unmarked) is recorded as 43 ± 0.9 s (human plasma; 128 µg/mL).
For `Nc1ncc(-c2cc(-c3cnn(CC(F)(F)F)c3)ncc2F)nc1C(=O)NC1CNCC(F)C1` (centres unmarked), the remaining binding was 97% (CSF1R; KINOMEscan; 1 µM; baseline: DMSO control).
The delta Tm of `C[n+]1ccc(/C=N/NC(=O)c2cccc(C(=O)N/N=C/c3cc[n+](C)c4ccccc34)n2)c2ccccc21` is reported as 35 °C (G-quadruplex DNA myc22 parallel; UV melting; 6 µM, K10 buffer, with: DNA 3 µM).
`Cc1ncsc1-c1ccc(C(C)NC(=O)C2CC(O)CN2C(=O)C(NC(=O)CCCCCCCCCCN2CCCC(Nc3ncc(Cl)c(Nc4ccccc4S(=O)(=O)C(C)C)n3)C2)C(C)(C)C)cc1` (centres unmarked) — result for “log2 fold change”: -1.63 (22Rv1; RNA-seq, item: TRPV1 mRNA; concentration not given; baseline: DMSO).
With `C[n+]1ccc(/C=N/NC(=O)N/N=C/c2cc[n+](C)cc2)cc1` the ΔTm was 2.5 ± 1.7 °C (22CTA telomeric G4-DNA antiparallel; FRET melting; 1 µM, K10 buffer, DNA 0.2 µM).
`COC1CN([C@H]2CC[C@H]([C@@]3(C)Oc4c(Cl)cc(C(=O)NCc5c(SC)cc(C)[nH]c5=O)c(C)c4O3)CC2)C1` — result for “log2 fold change”: 3.33 (RNA-seq, item: DLC1; human, whole blood; dose not given, 24 h; baseline: pretreatment baseline).
With `O=C(CC(F)(F)F)Nc1ccc([C@H]2[C@@H](F)[C@@H](F)C[C@@H](F)[C@H]2F)cc1` the hepatic clearance was 13 mL/min/kg (liver microsome stability; dog liver microsomes; 1 µM).
The delta Tm of `C[n+]1ccc(/C=N/NC(=O)c2cncc(C(=O)N/N=C/c3cc[n+](C)c4ccccc34)n2)c2ccccc21` is reported as 28.6 °C (G-quadruplex DNA myc22 parallel; UV melting; 6 µM, K10 buffer, with: DNA 3 µM).
Under “log2 fold change”, `c1ccc(-c2n[nH]cc2-c2ccnc3ccccc23)nc1` is recorded as -0.18 (AKL1 (Candida albicans); kinase binding, MIB/MS competition; Candida albicans lysate; 10 µM; baseline: DMSO).
`COC1OC(C)C(O)C(OC2OC(C)C(O)C(OC3OC(C)C(O)C(OC4OC(C)C(O)C(OC5OC(C)C(O)C(OC6OC(C)C(O)C(OC7OC(C)C(O)C(OC8OC(C)C(O)C(OC9OC(C)C(O)C(OC%10OC(C)C(O)C(OC%11OC(C)C(O)C(OS(=O)(=O)O)C%11OS(=O)(=O)O)C%10OS(=O)(=O)O)C9OS(=O)(=O)O)C8OS(=O)(=O)O)C7OS(=O)(=O)O)C6OS(=O)(=O)O)C5OS(=O)(=O)O)C4OS(=O)(=O)O)C3OS(=O)(=O)O)C2OS(=O)(=O)O)C1OS(=O)(=O)O` (centres unmarked): “activated partial thromboplastin time” 41.9 ± 0.6 s (human plasma; 128 µg/mL).
For `O=C(N/N=C/c1ccc2c(ccc[n+]2Cc2ccccc2)c1)c1cc(C(=O)N/N=C/c2ccc3c(ccc[n+]3Cc3ccccc3)c2)ncn1`, the ΔTm was 12.1 ± 0.8 °C (22CTA telomeric G4-DNA antiparallel; FRET melting; 1 µM, K10 buffer, DNA 0.2 µM).
For `CN1CCCNC(=O)c2cccc(c2)C(=O)NCCCN(C)CCCNc2cccc3c2C(=O)c2cccc(c2C3=O)NCCC1`, “log2 fold change” read -0.981 (SAS; RNA-Seq, item: OSBPL9 mRNA; 1 µM, 6 h; baseline: untreated cells).
For `CC[n+]1cccc2cc(/C=N/NC(=O)c3ccc4ccc(C(=O)N/N=C/c5ccc6c(ccc[n+]6CC)c5)nc4n3)ccc21`, the ΔTm was 11.9 ± 0.5 °C (22CTA telomeric G4-DNA antiparallel; FRET melting; 1 µM, K10 buffer, DNA 0.2 µM, with: ds26 10 µM).
The colony count of `CO[C@@H]1[C@@H](OC(N)=O)[C@@H](O)[C@H](Oc2ccc3c(O)c(NC(=O)c4ccc(O)c(CC=C(C)C)c4)c(=O)oc3c2C)OC1(C)C` is reported as 29 (HCT-116 BRCA2-/-; 75 µM, replicate 2).
With `C[n+]1ccc(/C=N/NC(=O)c2cccc(C(=O)N/N=C/c3cc[n+](C)cc3)n2)cc1` the ΔTm was 4.5 ± 1 °C (22CTA telomeric G4-DNA antiparallel; FRET melting; 1 µM, K10 buffer, DNA 0.2 µM, with: ds26 10 µM).
For `COc1ccccc1-c1ccncc1C(=O)Nc1nnc(OCc2ccc(Cl)cc2)s1`, the colony count was 27 and 50 and 30 and 38 and 47 and 54 (Brca1 Δ11/Δ11 MEFs sgGFP; 5 µM).
The IC50 of `CNS(=O)(=O)Nc1nccc(Cc2c(C)c3ccc(Oc4ncccc4F)cc3oc2=O)c1F` is reported as over 1 µM (NCI-H1694; cell viability; 7 days).
With `CCN(CC)CC(=O)Nc1cccc(-n2cc(-c3ccc4ccc(-c5cn(-c6cccc(NC(=O)CN(CC)CC)c6)nn5)cc4c3)nn2)c1` the fold regulation was 1.06 (RCC4; PCR angiogenesis array, item: PROK2; 5 x IC50, 6 h, normoxia; baseline: untreated).
The MIC50 of `C=C(NC(=O)c1csc(-c2nc3c(cc2O)-c2nc(cs2)C(=O)NC(C(C)O)C(=O)NC(=C(C)OC)c2nc(cs2)C(=O)NC2c4nc(cs4)C(=O)NC(COC(=O)c4c5c6c(cccc6n4O)COC(=O)C(OC4CC(C)(O)C(N(C)C)C(C)O4)C2OC5)c2nc-3cs2)n1)C(N)=O` (centres unmarked) is reported as 0.0156 µg/mL (≈ 0.0109 µM) (Streptococcus pyogenes; 10 isolates; serum 50%).
`CC(C)CC(=O)Nc1ccc([C@H]2[C@@H](F)[C@@H](F)C[C@@H](F)[C@H]2F)cc1` has a hepatic clearance of 42 mL/min/kg (liver microsome stability; mouse liver microsomes; 1 µM).
